Experimental data of several laboratories.
Lines come from different studies, so protocols differ. ± gives the spread as reported.
GABA-A receptor; alpha-1/beta-3/gamma-2: GABA-A receptor; alpha-1/beta-3/gamma-2 (Homo sapiens, UniProt P14867+P18507+P28472)
UniProt P14867, sequence (whole entry, unmodified, looked up): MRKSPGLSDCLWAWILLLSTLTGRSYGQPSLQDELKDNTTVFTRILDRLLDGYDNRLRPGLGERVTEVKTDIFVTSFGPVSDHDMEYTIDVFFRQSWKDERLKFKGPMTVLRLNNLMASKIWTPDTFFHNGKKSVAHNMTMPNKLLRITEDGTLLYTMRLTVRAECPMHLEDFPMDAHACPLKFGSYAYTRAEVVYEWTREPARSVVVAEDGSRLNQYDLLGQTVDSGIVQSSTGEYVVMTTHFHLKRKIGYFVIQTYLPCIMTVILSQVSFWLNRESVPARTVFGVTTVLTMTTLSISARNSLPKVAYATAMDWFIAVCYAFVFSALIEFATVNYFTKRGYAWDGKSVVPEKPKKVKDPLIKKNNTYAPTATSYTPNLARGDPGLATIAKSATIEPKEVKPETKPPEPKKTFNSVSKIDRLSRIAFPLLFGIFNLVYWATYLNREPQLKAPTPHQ
UniProt P18507, sequence (whole entry, looked up): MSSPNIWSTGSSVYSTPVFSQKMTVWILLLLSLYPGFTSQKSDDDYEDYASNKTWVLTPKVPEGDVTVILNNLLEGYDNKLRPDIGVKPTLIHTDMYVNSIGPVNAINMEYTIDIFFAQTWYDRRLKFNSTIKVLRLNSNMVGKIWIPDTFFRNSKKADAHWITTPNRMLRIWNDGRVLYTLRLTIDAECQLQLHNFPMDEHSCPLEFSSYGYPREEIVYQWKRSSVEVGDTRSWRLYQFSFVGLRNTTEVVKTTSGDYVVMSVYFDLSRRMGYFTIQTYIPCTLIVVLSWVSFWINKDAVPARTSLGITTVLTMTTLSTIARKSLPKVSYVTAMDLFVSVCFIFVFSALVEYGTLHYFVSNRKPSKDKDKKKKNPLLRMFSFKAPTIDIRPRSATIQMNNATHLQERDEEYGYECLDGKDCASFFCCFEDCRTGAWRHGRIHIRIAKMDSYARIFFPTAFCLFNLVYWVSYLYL
UniProt P28472, sequence (whole entry, unmodified, looked up): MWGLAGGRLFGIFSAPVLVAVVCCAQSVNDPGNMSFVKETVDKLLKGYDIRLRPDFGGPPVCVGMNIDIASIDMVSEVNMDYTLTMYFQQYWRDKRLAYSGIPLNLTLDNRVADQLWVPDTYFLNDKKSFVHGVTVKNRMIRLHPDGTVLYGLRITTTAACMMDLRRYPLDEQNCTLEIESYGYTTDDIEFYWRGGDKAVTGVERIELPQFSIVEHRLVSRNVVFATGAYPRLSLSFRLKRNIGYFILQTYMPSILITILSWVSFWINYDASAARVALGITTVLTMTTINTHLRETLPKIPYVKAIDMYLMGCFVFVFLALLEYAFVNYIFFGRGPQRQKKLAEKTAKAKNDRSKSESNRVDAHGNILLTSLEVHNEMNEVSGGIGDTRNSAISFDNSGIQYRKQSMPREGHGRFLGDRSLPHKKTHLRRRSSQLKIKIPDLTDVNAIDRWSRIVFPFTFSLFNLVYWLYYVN
GABRA1/GABRB3 L291T with gamma-2 subunit: GABA-A receptor alpha-1/beta-3, with gamma-2 subunit (GABRA1/GABRB3, Homo sapiens, UniProt P14867+P28472, L291T)
Sterol carrier protein 2: Sterol carrier protein 2 (Homo sapiens, UniProt P22307)
UniProt P22307, sequence (whole entry, looked up): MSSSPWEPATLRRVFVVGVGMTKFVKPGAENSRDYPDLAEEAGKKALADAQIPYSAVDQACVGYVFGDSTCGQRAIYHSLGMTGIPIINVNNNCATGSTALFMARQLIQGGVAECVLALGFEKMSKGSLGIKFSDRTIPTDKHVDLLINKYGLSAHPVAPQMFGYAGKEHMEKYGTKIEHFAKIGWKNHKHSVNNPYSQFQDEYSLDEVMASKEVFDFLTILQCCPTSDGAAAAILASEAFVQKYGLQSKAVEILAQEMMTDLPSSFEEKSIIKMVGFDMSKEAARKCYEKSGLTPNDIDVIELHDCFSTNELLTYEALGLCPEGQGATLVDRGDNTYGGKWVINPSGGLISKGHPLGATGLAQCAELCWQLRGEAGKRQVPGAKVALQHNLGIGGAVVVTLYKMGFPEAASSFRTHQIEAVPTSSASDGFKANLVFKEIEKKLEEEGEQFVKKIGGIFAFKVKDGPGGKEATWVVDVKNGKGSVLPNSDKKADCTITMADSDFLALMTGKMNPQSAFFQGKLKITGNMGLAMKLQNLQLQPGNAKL
UniProt P08908, sequence (whole entry, looked up): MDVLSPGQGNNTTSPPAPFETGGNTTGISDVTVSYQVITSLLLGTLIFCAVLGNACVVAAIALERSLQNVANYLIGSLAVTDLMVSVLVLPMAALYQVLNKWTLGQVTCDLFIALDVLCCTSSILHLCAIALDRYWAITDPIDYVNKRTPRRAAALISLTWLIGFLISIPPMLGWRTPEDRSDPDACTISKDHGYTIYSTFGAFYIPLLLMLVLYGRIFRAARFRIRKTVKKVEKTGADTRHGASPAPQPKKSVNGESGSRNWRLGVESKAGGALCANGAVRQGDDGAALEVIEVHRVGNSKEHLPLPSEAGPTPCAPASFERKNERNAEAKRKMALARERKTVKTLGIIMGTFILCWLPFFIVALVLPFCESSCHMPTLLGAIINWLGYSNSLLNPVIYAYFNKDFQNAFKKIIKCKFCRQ
UniProt P31645, sequence (whole entry, looked up): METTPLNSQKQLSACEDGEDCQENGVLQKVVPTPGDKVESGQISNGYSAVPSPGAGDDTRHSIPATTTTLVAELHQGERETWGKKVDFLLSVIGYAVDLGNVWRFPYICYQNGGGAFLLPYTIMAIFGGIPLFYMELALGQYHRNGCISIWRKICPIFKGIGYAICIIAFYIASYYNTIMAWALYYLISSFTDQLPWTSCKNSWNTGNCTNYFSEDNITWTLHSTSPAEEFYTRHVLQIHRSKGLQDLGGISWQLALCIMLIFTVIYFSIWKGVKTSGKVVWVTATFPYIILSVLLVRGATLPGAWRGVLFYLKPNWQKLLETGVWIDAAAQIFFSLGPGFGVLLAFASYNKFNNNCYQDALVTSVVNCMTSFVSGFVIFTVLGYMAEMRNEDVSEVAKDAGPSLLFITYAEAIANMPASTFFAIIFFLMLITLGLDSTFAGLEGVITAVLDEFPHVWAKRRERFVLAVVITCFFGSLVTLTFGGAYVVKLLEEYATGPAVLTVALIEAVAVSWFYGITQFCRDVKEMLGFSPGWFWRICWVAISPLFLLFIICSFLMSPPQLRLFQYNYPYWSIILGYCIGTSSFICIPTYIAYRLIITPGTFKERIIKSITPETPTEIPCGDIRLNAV
UniProt P23977, sequence (whole entry, looked up): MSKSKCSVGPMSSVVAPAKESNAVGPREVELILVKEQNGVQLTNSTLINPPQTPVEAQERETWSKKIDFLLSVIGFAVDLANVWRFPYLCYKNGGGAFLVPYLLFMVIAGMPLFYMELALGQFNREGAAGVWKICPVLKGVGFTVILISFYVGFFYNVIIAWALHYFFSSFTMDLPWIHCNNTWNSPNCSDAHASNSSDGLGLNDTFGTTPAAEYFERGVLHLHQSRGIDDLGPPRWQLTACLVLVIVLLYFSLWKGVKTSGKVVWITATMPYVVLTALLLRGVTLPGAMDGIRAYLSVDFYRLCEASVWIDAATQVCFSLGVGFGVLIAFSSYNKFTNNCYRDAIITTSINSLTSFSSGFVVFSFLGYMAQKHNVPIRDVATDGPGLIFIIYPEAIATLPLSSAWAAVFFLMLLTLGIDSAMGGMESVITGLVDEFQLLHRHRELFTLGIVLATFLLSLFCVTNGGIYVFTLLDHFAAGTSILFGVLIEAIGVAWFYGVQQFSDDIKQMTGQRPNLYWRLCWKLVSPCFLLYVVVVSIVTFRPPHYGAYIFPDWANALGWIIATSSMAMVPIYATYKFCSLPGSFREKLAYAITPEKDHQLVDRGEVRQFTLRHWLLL
UniProt P47870, sequence (whole entry, looked up): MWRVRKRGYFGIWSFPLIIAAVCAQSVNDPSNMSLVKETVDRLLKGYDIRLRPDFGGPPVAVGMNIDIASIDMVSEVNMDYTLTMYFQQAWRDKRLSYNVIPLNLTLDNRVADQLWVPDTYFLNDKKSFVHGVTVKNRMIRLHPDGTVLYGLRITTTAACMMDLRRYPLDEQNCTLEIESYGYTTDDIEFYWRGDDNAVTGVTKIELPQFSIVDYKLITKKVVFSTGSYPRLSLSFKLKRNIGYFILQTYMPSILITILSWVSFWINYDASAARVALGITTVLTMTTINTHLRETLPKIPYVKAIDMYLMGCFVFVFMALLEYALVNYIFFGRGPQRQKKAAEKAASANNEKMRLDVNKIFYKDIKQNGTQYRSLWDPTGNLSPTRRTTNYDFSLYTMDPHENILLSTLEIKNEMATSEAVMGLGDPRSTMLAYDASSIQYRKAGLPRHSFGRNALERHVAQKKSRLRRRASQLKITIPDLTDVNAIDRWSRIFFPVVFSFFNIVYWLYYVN
UniProt P28223, sequence (whole entry, looked up): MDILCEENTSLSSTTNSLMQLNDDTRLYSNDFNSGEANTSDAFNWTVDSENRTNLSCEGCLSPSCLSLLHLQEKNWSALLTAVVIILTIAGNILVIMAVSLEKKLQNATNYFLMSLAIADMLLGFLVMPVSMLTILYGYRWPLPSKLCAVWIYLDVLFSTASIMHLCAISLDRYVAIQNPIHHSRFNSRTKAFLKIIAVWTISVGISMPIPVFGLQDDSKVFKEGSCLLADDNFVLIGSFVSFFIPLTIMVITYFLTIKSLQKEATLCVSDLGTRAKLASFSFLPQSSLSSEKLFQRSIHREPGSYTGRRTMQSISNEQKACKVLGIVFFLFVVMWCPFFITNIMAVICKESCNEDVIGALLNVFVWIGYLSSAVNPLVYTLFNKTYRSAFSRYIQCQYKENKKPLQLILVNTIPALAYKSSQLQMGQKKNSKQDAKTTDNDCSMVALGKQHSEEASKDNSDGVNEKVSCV
UniProt P33533, sequence (whole entry, looked up): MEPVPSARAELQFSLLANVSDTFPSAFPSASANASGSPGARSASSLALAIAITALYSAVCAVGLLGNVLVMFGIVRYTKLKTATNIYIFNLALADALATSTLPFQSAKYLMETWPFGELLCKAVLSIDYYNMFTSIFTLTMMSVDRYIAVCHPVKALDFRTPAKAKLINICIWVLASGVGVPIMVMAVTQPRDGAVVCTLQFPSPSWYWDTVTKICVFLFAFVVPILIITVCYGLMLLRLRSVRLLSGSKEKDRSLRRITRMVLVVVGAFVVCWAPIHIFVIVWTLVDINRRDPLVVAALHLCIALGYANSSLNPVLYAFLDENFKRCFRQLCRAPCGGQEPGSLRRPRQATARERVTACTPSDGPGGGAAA

| Compound | target | test | system | conditions | scale | EC50 |
| --- | --- | --- | --- | --- | --- | --- |
| CNC(C)C(=O)c1ccccc1 (centres unmarked) | Slc6a3 (Rattus norvegicus, UniProt P23977) | substrate release, releasing agent | rat brain synaptosomes | – | – | 0.021 to 0.025 µM |
| CCOC(=O)c1cncn1[C@H](C)c1ccc(OC)cc1 | GABA-A receptor; alpha-1/beta-3/gamma-2 | potentiation of GABA current, positive allosteric modulator, two-electrode voltage clamp | Xenopus oocytes | added: GABA EC5 | – | 30 µM |
| CCOC(=O)c1cccn1[C@H](C)c1ccccc1 | GABRA1/GABRB3 L291T with gamma-2 subunit | ion current, agonist, two-electrode voltage clamp | Xenopus oocytes | – | relative to: 100 µM GABA | 13.8 ± 0.9 µM |
| CCOC(=O)c1cncn1[C@H](C)c1ccc(Br)cc1 | GABA-A receptor; alpha-1/beta-3/gamma-2 | potentiation of GABA current, positive allosteric modulator, two-electrode voltage clamp | Xenopus oocytes | added: GABA EC5 | – | 2.5 µM |
| CCCCC/C=C\C/C=C\C/C=C\C/C=C\CCCC(=O)NC(CO)CO | Sterol carrier protein 2 | NBDS displacement, fluorescent probe displacement | – | 50% of maximum displacement, added: NBDS 500 nM | – | 6.7 ± 0.28 µM |
| C[C@]12CC[C@@H](O)C[C@@H]1CC[C@@H]1[C@@H]2CC[C@]2(C)[C@@H](C(=O)CO)CC[C@@H]12 | GABA-A receptor alpha-1/beta-3 (GABRA1/GABRB3, Homo sapiens, UniProt P14867+P28472) | [3H]muscimol binding modulation, modulator | native membranes | added: 2 nM [3H]muscimol | – | 1 µM |
| COC(=O)C(C)(C)COC(=O)c1cncn1[C@H](C)c1ccccc1 | GABRA1/GABRB3 L291T with gamma-2 subunit | ion current, agonist, two-electrode voltage clamp | Xenopus oocytes | – | relative to: 100 µM GABA | 5.5 ± 0.6 µM |
| CCCC(NCC)C(=O)c1ccc2c(c1)OCO2 (centres unmarked) | SLC6A4 (Homo sapiens, UniProt P31645) | [3H]5-HT release, releaser | HEK293 expressing target | – | – | > 10 µM |
| CN1CC[C@]2(c3cccc(O)c3)Cc3nc4ccccc4cc3C[C@H]2C1 | Oprd1 (Rattus norvegicus, UniProt P33533) | GTPγS binding, agonist, radiometric | – | cell membranes | – | > 100 µM |
| COC(=O)C(C)(C)OC(=O)c1cncn1[C@H](C)c1ccccc1 | GABRA1/GABRB3 L291T with gamma-2 subunit | ion current, agonist, two-electrode voltage clamp | Xenopus oocytes | – | relative to: 100 µM GABA | 1.6 ± 0.4 µM |
| CCCCC/C=C\C/C=C\C/C=C\C/C=C\CCCC(=O)OCCN | Sterol carrier protein 2 | NBDS displacement, fluorescent probe displacement | – | 50% of maximum displacement, added: NBDS 500 nM | – | 3.64 ± 0.04 µM |
| C[C@@]1(O)CC[C@H]2[C@H](CC[C@@H]3[C@@H]2CC[C@]2(C)[C@@H](C(=O)Cn4cc(C#N)cn4)CC[C@@H]32)C1 | GABA A receptor alpha-1/beta-1/gamma-2 (Homo sapiens, UniProt P14867+P18505+P18507) | GABA current potentiation, positive modulator, two-electrode voltage clamp | Xenopus laevis oocytes | 30 s preincubation, added: GABA EC10 | – | 0.08 ± 0.02 µM |
| CCN(CC)CCc1c[nH]c2ccc(OC)cc12 | HTR1A (Homo sapiens, UniProt P08908) | calcium signal, agonist | – | – | – | 0.911 µM |
| COC(=O)CCOC(=O)c1cncn1[C@@H](c1ccccc1)C(C)C | GABRA1/GABRB3 L291T with gamma-2 subunit | ion current, agonist, two-electrode voltage clamp | Xenopus oocytes | – | relative to: 100 µM GABA | 46 ± 6 µM |
| CCOC(=O)c1cncn1C(C)c1cccc2ccccc12 (centres unmarked) | GABA-A receptor; alpha-1/beta-3/gamma-2 | GABA current potentiation, positive allosteric modulator, two-electrode voltage clamp | Xenopus oocytes | added: GABA EC5 | – | 38 µM |
| COc1ccc2[nH]cc(CCNC(C)C)c2c1 | HTR2A (Homo sapiens, UniProt P28223) | calcium signal, agonist | – | – | – | 0.00924 µM |
| CC(=O)[C@H]1CC[C@H]2[C@@H]3CC[C@H]4C[C@](C)(O)CC[C@]4(C)[C@H]3CC[C@]12C | GABA-A receptor; alpha-1/beta-2/gamma-2 (Homo sapiens, UniProt P14867+P18507+P47870) | GABA current potentiation, positive modulator, two-electrode voltage clamp | Xenopus laevis oocytes | 30 s preincubation, added: GABA EC10 | – | 0.79 ± 0.63 µM |

Excerpt of the above:
| Compound | target | test | system | conditions | scale | EC50 |
| --- | --- | --- | --- | --- | --- | --- |
| C[C@]12CC[C@@H](O)C[C@@H]1CC[C@@H]1[C@@H]2CC[C@]2(C)[C@@H](C(=O)CO)CC[C@@H]12 | GABA-A receptor alpha-1/beta-3 (GABRA1/GABRB3, Homo sapiens, UniProt P14867+P28472) | [3H]muscimol binding modulation, modulator | native membranes | added: 2 nM [3H]muscimol | – | 1 µM |
| COC(=O)C(C)(C)COC(=O)c1cncn1[C@H](C)c1ccccc1 | GABRA1/GABRB3 L291T with gamma-2 subunit | ion current, agonist, two-electrode voltage clamp | Xenopus oocytes | – | relative to: 100 µM GABA | 5.5 ± 0.6 µM |
